{"data": "Assay results collected from several papers", "note": "Each numbered part is a random draw from the data of one study; scales do not carry over between parts.", "sequence of UniProt Q12866 (whole entry, looked up)": "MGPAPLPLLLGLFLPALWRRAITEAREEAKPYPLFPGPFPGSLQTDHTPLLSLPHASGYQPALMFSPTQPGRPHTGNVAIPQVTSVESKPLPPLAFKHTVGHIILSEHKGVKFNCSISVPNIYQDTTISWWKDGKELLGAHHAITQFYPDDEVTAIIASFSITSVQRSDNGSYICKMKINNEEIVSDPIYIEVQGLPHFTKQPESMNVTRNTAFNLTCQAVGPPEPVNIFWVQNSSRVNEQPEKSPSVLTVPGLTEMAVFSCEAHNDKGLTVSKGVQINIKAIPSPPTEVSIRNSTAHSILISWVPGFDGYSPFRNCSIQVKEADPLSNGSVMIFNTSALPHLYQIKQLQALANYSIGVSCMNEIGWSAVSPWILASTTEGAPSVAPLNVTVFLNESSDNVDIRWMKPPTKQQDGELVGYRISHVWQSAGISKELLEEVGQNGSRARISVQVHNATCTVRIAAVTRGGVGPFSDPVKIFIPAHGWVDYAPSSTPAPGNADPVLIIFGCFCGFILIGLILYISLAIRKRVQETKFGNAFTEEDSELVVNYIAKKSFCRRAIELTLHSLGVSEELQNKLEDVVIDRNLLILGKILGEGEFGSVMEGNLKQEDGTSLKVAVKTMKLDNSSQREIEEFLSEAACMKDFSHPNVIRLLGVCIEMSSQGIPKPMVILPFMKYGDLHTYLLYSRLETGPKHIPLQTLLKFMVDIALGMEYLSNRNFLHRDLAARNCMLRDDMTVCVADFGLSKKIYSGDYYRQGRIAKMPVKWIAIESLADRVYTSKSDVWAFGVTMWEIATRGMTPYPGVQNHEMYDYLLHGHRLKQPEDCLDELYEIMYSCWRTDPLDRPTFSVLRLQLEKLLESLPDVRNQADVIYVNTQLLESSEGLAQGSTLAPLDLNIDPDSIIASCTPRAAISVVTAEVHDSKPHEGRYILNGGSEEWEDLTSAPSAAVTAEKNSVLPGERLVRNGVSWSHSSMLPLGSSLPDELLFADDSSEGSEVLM", "sequence of UniProt P11309 (whole entry, looked up)": "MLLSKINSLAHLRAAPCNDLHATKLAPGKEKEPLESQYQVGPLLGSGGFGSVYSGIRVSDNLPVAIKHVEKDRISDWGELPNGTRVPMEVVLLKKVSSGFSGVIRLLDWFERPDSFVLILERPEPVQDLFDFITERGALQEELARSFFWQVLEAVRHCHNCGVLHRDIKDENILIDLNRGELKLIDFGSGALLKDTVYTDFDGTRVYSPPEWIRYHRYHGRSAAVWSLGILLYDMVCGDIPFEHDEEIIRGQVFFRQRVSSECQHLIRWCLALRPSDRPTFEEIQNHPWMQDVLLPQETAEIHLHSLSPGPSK", "sequence of UniProt P36896 (whole entry, looked up)": "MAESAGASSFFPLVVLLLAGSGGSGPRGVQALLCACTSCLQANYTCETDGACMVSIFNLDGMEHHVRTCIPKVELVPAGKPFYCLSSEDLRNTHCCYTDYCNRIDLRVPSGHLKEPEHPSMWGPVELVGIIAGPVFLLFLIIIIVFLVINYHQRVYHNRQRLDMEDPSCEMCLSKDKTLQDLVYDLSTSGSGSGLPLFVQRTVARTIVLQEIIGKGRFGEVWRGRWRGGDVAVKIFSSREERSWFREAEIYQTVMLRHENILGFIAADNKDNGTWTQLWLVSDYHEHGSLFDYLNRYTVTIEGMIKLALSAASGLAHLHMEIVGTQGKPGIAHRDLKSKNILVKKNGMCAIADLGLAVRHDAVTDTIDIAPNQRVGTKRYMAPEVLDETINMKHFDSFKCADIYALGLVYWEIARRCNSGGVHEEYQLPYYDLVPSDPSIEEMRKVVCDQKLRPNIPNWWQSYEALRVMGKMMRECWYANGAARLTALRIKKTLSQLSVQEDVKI", "sequence of UniProt P49840 (whole entry, looked up)": "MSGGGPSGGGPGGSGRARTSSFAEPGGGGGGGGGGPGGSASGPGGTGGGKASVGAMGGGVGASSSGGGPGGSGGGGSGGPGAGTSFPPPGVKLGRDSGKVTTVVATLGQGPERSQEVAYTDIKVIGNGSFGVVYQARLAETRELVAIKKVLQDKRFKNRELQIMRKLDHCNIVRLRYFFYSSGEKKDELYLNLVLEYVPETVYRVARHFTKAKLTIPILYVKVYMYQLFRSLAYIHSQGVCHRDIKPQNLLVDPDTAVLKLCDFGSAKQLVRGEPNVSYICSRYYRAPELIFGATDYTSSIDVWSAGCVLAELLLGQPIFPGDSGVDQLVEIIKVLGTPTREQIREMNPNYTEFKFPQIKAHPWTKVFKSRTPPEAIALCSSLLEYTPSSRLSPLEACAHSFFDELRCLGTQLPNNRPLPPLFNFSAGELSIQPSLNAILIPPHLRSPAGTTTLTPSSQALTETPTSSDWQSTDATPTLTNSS", "sequence of UniProt Q99558 (whole entry, looked up)": "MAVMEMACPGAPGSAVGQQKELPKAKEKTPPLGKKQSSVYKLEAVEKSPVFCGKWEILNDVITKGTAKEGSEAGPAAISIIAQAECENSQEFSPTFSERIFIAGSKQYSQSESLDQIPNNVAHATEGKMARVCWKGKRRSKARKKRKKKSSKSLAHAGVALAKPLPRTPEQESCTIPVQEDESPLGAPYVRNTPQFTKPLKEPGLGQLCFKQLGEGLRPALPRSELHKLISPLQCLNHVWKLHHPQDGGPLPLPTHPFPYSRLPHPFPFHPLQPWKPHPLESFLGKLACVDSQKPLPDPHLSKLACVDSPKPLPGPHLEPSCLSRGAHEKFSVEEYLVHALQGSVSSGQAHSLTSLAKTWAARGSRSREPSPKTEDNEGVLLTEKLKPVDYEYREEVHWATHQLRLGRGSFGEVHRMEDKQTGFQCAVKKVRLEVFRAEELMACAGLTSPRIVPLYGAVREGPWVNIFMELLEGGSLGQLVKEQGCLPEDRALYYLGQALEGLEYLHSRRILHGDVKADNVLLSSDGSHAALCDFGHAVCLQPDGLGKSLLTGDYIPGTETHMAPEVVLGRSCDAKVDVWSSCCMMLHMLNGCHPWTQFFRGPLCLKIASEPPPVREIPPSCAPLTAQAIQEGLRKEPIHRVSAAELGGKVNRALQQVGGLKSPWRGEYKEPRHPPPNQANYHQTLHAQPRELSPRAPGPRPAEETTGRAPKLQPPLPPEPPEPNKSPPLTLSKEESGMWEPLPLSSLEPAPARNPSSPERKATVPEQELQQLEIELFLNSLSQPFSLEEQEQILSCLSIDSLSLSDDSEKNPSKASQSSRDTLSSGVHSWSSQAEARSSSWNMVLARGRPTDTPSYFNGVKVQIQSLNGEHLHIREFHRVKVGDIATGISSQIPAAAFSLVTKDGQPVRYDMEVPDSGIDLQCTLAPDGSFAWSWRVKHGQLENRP", "sequence of UniProt P42680 (whole entry, looked up)": "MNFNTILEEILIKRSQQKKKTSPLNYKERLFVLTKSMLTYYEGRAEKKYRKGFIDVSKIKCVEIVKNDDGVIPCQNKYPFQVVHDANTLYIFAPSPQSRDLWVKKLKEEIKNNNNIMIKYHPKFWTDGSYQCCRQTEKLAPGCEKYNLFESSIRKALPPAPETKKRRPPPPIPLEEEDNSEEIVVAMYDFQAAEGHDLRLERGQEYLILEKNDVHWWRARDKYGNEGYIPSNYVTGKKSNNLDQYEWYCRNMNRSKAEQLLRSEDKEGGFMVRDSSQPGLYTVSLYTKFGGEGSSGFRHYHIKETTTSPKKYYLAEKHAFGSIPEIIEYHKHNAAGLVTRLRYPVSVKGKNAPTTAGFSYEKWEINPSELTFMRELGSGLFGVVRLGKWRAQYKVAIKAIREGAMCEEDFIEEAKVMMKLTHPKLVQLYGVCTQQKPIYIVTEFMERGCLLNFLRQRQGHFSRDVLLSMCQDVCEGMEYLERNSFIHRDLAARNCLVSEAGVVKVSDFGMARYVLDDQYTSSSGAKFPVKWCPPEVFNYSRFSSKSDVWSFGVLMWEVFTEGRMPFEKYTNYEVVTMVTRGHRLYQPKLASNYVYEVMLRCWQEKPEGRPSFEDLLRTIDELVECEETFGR", "sequence of UniProt P50750 (whole entry, looked up)": "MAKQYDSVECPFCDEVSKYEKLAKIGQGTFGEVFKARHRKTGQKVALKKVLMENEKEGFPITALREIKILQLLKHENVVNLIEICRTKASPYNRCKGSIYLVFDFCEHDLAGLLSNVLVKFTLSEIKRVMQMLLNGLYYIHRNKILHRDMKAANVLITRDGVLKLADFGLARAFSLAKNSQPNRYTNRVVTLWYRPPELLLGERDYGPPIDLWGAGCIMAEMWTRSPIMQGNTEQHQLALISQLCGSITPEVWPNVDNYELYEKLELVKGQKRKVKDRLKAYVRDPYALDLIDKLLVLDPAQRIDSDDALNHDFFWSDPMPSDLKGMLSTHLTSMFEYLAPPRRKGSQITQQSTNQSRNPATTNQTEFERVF", "sequence of UniProt P11802 (whole entry, looked up)": "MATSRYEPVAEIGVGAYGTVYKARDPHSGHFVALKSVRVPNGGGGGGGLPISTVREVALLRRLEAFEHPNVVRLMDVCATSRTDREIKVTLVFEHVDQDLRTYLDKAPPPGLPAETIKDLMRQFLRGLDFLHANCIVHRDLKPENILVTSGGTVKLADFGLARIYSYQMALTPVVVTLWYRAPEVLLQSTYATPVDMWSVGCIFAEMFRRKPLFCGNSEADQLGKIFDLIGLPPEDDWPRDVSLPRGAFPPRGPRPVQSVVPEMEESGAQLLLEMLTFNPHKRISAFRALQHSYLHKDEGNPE"}
{"data": "Study 1", "target": "Interferon regulatory factor 3, full length, phosphomimetic (IRF3, Homo sapiens, UniProt Q14653, residues 1-427, S386D/S396D/S398D/S402D/T404D/S405D)", "technique": "protein-binding microarray", "molecule type": "double-stranded DNA, one strand shown", "medium": "in vitro", "tested at": "2540 nM top", "setting": "60-bp whole probe", "added": "salmon DNA 0.4 mg/ml", "reference": "random background probes", "reading": "higher = stronger binding", "constant ends, left off below": "GCCTAGCAC … GTCTTGATTCGCTTGACGCTGCTG", "sequence of UniProt Q14653 (whole entry, unmodified, looked up)": "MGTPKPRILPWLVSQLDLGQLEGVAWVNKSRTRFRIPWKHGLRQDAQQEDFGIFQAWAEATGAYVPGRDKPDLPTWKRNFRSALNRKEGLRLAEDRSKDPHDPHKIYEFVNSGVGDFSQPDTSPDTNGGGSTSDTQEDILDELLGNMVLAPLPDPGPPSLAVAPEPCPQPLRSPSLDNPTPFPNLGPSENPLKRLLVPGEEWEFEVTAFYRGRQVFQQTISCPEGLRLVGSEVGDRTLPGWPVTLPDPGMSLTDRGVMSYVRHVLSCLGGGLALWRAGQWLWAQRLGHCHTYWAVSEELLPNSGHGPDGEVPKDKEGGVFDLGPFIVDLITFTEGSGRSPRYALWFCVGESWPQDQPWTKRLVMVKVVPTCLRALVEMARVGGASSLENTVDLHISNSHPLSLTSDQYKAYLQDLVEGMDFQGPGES"}
{"Strand": "GACGGTCTCCTAATGCTGACGTGCTAG", "fitted relative affinity": "1.89 z-score"}
{"Strand": "TTGGATATCAGACTGGATTAGTGCTAG", "fitted relative affinity": "-0.193 z-score"}
{"Strand": "CTAGATATCGGGACTGGATTAGTGCTA", "fitted relative affinity": "0.141 z-score"}
{"Strand": "TCATTTTAAGTTCTCTGACTGTGCTAG", "fitted relative affinity": "1.75 z-score"}
{"Strand": "GACCATATCAGTTTCGAGACGTGCTAG", "fitted relative affinity": "3.57 z-score"}
{"Strand": "TTAGGACTGCTTATCCATTAGTGCTAG", "fitted relative affinity": "-0.137 z-score"}
{"Strand": "GACGGTATCGGGTATCGTGACGTGCTA", "fitted relative affinity": "1.6 z-score"}
{"Strand": "TTAGGTCTCGTACTGGGTTAGTGCTAG", "fitted relative affinity": "-0.282 z-score"}
{"data": "Study 2", "SMILES": "CCOc1cc2ncnc(Nc3cccc(Br)c3)c2cc1OCC", "observed": "enzyme activity", "action": "inhibitor", "tested at": "0.5 µM", "reference": "control"}
{"target": "FGFR3 (Homo sapiens, UniProt P22607)", "remaining activity": "103%"}
{"target": "ARAF (Homo sapiens, UniProt P10398)", "remaining activity": "105%"}
{"target": "MAP2K2 (Homo sapiens, UniProt P36507)", "remaining activity": "95.5%"}
{"target": "MAP3K5 (Homo sapiens, UniProt Q99683)", "remaining activity": "116%"}
{"target": "CSNK1G3 (Homo sapiens, UniProt Q9Y6M4)", "remaining activity": "98.7%"}
{"target": "WEE1 (Homo sapiens, UniProt P30291)", "remaining activity": "97.9%"}
{"target": "MERTK (Homo sapiens, UniProt Q12866)", "remaining activity": "87.1%"}
{"target": "MAP3K14 (Homo sapiens, UniProt Q99558)", "remaining activity": "93.4%"}
{"target": "ACVR1B (Homo sapiens, UniProt P36896)", "remaining activity": "101%"}
{"target": "RPS6KA2 (Homo sapiens, UniProt Q15349)", "remaining activity": "74.5%"}
{"target": "FRK (Homo sapiens, UniProt P42685)", "remaining activity": "85.9%"}
{"target": "ULK2 (Homo sapiens, UniProt Q8IYT8)", "remaining activity": "82.8%"}
{"target": "GRK7 (Homo sapiens, UniProt Q8WTQ7)", "remaining activity": "102%"}
{"target": "MST1R (Homo sapiens, UniProt Q04912)", "remaining activity": "102%"}
{"data": "Study 3", "Compound": "NS(=O)(=O)c1cc(NC(=O)Cc2ccccc2)ccc1Oc1cccc(Cl)c1", "technique": "competition with immobilised ligand", "tested at": "1 µM"}
{"target": "STK24 (Homo sapiens, UniProt Q9Y6E0)", "assay": "cell-free assay", "remaining binding [%]": 82}
{"target": "CDK4 (Homo sapiens, UniProt P11802)", "assay": "cell-free assay", "remaining binding [%]": 88}
{"target": "FLT3 (Homo sapiens, UniProt P36888, R834Q)", "assay": "cell-free assay", "remaining binding [%]": 91}
{"target": "CHEK1 (Homo sapiens, UniProt O14757)", "assay": "cell-free assay", "remaining binding [%]": 99}
{"target": "PTK6 (Homo sapiens, UniProt Q13882)", "assay": "cell-free assay", "remaining binding [%]": 96}
{"target": "GRK2 (Homo sapiens, UniProt P25098)", "assay": "cell-free assay", "remaining binding [%]": 97}
{"target": "BRAF (Homo sapiens, UniProt P15056, V600E)", "assay": "cell-free assay", "remaining binding [%]": 89}
{"target": "LIM domain kinase 1 (LIMK1, Homo sapiens, UniProt P53667)", "assay": "cell-free assay", "remaining binding [%]": 87}
{"target": "TEC (Homo sapiens, UniProt P42680)", "assay": "binding", "remaining binding [%]": 96}
{"target": "PIM1 (Homo sapiens, UniProt P11309)", "assay": "cell-free assay", "remaining binding [%]": 89}
{"target": "GSK3A (Homo sapiens, UniProt P49840)", "assay": "cell-free assay", "remaining binding [%]": 93}
{"target": "FLT3 (Homo sapiens, UniProt P36888, N841I)", "assay": "cell-free assay", "remaining binding [%]": 55}
{"target": "MERTK (Homo sapiens, UniProt Q12866)", "assay": "cell-free assay", "remaining binding [%]": 82}
{"target": "CDK9 (Homo sapiens, UniProt P50750)", "assay": "cell-free assay", "remaining binding [%]": 92}
{"target": "PTK2 (Homo sapiens, UniProt Q05397)", "assay": "cell-free assay", "remaining binding [%]": 96}
{"target": "ANKK1 (Homo sapiens, UniProt Q8NFD2)", "assay": "cell-free assay", "remaining binding [%]": 78}
{"data": "Other studies, line by line", "partner": "YWHAH (Homo sapiens, UniProt Q04917)", "technique": "cross-linking MS", "setting": "hits only"}
{"Molecule": "YWHAB (Homo sapiens, UniProt P31946)", "interaction screen": "cross-linked"}
{"Molecule": "SFN (Homo sapiens, UniProt P31947)", "interaction screen": "cross-linked"}
{"note": "A few entries again (study 3):"}
{"target": "TEC (Homo sapiens, UniProt P42680)", "assay": "binding", "remaining binding [%]": 96}
{"target": "CDK9 (Homo sapiens, UniProt P50750)", "assay": "cell-free assay", "remaining binding [%]": 92}
{"target": "PTK6 (Homo sapiens, UniProt Q13882)", "assay": "cell-free assay", "remaining binding [%]": 96}
{"target": "FLT3 (Homo sapiens, UniProt P36888, R834Q)", "assay": "cell-free assay", "remaining binding [%]": 91}
{"target": "GRK2 (Homo sapiens, UniProt P25098)", "assay": "cell-free assay", "remaining binding [%]": 97}
{"target": "ANKK1 (Homo sapiens, UniProt Q8NFD2)", "assay": "cell-free assay", "remaining binding [%]": 78}
